Measured values pooled from the literature.
Each numbered part is a random draw from the data of one study; scales do not carry over between parts. “And” joins repeats or separate records; there may be more than shown.
Chain of UniProt Q13976 (whole entry, looked up): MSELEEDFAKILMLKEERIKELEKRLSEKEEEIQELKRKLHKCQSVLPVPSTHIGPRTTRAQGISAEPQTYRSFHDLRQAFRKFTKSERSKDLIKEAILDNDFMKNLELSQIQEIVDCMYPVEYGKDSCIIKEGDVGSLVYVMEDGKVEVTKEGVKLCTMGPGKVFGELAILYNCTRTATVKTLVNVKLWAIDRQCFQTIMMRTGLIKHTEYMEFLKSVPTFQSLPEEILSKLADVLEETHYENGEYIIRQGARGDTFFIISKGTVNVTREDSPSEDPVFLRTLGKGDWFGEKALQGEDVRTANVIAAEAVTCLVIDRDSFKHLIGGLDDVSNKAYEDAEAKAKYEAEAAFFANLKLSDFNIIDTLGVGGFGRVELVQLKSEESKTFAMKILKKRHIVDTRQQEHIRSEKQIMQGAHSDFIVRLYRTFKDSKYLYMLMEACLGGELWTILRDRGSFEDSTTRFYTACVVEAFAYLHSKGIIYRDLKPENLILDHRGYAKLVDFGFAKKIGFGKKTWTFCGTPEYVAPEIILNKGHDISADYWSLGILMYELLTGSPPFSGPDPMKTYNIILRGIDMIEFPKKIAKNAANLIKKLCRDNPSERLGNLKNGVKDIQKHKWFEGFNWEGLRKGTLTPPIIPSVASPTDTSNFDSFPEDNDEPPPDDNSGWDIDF
Chain of UniProt O75716 (whole entry, looked up): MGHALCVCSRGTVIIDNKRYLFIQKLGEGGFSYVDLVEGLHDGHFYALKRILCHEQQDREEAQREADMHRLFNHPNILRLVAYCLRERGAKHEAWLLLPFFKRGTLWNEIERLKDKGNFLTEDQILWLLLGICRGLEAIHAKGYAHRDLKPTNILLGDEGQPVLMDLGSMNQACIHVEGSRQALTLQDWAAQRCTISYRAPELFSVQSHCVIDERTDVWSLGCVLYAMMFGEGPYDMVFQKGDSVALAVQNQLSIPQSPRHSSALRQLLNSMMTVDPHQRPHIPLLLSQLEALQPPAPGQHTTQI
Chain of UniProt Q16566 (whole entry, looked up): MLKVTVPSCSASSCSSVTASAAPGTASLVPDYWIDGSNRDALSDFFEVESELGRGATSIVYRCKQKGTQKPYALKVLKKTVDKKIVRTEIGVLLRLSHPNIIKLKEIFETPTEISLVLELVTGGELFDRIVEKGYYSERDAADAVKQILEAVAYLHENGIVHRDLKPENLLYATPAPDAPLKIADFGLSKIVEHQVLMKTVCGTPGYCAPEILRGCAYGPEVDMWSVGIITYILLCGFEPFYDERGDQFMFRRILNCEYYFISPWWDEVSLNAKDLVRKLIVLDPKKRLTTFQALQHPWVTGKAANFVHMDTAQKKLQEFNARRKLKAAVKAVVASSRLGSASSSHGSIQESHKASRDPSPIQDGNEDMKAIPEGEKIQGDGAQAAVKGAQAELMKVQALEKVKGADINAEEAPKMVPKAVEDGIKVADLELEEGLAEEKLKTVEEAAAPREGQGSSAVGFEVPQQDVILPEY
Chain of UniProt P54762 (whole entry, looked up): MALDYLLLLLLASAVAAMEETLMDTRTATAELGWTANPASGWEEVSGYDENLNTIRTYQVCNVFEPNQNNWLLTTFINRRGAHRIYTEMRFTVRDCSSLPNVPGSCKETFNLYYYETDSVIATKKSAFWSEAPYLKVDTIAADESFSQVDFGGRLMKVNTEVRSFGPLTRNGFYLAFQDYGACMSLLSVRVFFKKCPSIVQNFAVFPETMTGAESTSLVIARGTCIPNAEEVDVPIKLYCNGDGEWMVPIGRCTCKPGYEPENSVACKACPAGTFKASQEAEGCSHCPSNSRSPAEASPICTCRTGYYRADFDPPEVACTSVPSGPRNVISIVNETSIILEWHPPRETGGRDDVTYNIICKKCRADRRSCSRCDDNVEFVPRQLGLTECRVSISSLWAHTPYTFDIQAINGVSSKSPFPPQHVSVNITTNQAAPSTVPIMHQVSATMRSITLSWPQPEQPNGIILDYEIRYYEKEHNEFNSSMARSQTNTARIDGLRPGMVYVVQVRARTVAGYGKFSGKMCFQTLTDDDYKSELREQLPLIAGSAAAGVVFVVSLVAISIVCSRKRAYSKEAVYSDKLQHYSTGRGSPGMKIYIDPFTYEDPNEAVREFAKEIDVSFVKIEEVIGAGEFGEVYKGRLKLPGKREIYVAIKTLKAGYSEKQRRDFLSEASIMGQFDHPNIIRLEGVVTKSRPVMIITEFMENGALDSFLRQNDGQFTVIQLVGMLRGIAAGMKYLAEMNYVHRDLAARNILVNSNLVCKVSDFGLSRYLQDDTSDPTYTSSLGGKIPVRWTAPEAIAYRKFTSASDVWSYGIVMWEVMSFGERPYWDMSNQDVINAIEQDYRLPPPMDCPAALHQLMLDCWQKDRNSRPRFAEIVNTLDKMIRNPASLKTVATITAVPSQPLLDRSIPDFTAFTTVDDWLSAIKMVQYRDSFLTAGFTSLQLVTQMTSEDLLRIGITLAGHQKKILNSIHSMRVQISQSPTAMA
Chain of UniProt P22607 (whole entry, looked up): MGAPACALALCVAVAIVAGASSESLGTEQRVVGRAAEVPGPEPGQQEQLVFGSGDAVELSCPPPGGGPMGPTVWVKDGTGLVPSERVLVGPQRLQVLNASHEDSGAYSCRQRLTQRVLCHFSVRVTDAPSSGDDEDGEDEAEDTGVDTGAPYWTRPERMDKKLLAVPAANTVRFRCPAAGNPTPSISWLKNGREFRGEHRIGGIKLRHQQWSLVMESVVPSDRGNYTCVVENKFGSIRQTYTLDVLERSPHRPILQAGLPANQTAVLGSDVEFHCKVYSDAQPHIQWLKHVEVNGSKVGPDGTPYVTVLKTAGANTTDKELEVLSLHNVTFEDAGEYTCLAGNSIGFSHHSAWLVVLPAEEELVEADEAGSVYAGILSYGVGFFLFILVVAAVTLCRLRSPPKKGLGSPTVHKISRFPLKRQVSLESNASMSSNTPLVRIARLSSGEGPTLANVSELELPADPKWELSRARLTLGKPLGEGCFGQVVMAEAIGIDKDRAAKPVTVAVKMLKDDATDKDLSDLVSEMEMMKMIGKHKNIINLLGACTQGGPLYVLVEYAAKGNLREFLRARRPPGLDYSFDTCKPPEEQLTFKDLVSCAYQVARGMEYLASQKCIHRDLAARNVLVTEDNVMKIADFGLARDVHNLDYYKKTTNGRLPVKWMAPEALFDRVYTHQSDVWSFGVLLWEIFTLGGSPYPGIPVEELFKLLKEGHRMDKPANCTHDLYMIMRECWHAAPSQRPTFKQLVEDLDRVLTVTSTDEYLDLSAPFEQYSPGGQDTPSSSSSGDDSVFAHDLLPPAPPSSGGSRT
Chain of UniProt Q08881 (whole entry, looked up): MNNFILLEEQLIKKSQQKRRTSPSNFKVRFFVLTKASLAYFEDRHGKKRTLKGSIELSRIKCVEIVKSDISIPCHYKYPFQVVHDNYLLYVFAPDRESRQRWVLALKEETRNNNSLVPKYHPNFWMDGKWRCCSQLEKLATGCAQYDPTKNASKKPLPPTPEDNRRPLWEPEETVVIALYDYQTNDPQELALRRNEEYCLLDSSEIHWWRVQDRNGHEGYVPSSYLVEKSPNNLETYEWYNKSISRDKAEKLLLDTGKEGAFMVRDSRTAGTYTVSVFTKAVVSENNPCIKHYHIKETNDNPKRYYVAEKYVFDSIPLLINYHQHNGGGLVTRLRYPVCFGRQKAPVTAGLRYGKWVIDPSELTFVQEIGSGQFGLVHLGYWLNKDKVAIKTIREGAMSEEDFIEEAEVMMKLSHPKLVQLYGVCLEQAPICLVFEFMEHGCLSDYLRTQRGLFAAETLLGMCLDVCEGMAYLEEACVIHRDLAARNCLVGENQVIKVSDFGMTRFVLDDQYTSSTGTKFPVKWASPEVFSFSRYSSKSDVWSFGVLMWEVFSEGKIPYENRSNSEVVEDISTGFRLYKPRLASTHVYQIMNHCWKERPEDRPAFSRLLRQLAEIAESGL
Chain of UniProt Q99640 (whole entry, looked up): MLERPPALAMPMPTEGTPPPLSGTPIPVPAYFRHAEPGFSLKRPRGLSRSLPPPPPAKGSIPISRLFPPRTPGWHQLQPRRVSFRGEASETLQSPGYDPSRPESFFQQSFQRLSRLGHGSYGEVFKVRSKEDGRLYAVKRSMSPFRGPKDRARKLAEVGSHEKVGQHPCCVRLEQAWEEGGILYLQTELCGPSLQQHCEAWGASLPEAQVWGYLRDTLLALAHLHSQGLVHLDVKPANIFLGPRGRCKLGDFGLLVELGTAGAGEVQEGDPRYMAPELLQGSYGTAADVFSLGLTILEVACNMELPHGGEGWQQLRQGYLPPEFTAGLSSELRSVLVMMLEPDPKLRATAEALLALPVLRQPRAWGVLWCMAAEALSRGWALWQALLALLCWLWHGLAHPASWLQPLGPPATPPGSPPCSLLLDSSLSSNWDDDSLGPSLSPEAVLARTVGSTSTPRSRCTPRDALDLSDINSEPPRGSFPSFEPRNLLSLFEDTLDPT
Chain of UniProt Q86Y07 (whole entry, looked up): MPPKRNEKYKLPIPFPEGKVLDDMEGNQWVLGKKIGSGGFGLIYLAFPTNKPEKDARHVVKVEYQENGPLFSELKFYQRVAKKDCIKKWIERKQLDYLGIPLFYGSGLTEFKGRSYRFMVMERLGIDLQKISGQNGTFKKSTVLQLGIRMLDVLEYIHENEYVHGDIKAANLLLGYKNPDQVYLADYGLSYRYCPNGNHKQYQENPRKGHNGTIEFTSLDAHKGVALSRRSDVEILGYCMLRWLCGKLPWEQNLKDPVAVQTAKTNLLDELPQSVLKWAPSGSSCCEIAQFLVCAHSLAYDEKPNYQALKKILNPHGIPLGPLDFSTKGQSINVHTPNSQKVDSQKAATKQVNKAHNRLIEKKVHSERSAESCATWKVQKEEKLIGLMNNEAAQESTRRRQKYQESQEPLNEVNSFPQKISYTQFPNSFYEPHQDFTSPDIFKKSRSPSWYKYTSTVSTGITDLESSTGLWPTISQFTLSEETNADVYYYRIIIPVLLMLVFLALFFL

Sample 1 — technique: von Frey test
Structure (SMILES): COc1cc(C(=O)OCCCN2CCCN(CCCOC(=O)c3cc(OC)c(OC)c(OCc4ccc([N+](=O)[O-])cc4)c3)CC2)cc(OC)c1OC
assay	test system	setting	paw withdrawal threshold
	mouse, CFA inflammatory pain	subcutaneous, 10 mg/kg, 1 h post-dose, second injection, day 3	0.23 g and 0.4 g and 0.29 g
	mouse, CFA inflammatory pain	intraplantar, 10 µg, 5 h post-dose, day 3 after CFA	0.75 g and 1.3 g and 0.51 g and 0.98 g
mechanical pain	mouse, STZ diabetic neuropathy	intravenous, 30 mg/kg, 3 h post-dose, first injection, day 8	0.1 g and 0.44 g and 0.51 g and 0.23 g and 0.32 g
	mouse, CFA inflammatory pain	intravenous, dose not given, 24 h post-dose, third injection, day 5	0.51 g and 0.44 g and 0.98 g
mechanical pain	mouse, STZ diabetic neuropathy	intravenous, 30 mg/kg, 1 h post-dose, first injection, day 8	0.65 g and 0.51 g and 0.98 g and 0.4 g
	mouse, CFA inflammatory pain	intravenous, dose not given, 3 h post-dose, first injection, day 1	0.98 g and 0.51 g and 0.65 g and 0.75 g

Sample 2 — observed: binding; technique: competition with immobilised ligand; tested at: 1 µM
SMILES: COc1cc(-c2nc3ccc(C(=O)NCCCN4CCN(c5cccc(C)c5C)CC4)cc3n2C2CCC2)cc(OC)c1OC
target	remaining binding
ITK (Homo sapiens, UniProt Q08881)	96%
EPHB1 (Homo sapiens, UniProt P54762)	95%
AKT1 (Homo sapiens, UniProt P31749)	82%
STK16 (Homo sapiens, UniProt O75716)	92%
TRPM6 (Homo sapiens, UniProt Q9BX84)	100%
DDR1 (Homo sapiens, UniProt Q08345)	71%
CAMK4 (Homo sapiens, UniProt Q16566)	78%
VRK2 (Homo sapiens, UniProt Q86Y07)	75%
FGFR3 (Homo sapiens, UniProt P22607)	98%
MAP2K4 (Homo sapiens, UniProt P45985)	85%
FGFR2 (Homo sapiens, UniProt P21802)	96%
PRKG1 (Homo sapiens, UniProt Q13976)	100%
TIE1 (Homo sapiens, UniProt P35590)	91%
STK39 (Homo sapiens, UniProt Q9UEW8)	90%
BRSK2 (Homo sapiens, UniProt Q8IWQ3)	87%

Sample 3 — organism: Arabidopsis thaliana; strain: Col-0
Structure (SMILES): O=C(O)C1(O)Oc2cc(F)ccc2N(Cc2ccccc2)C1=O (stereo not drawn)
setting	hypocotyl length
50 µg/mL, seed germination, repetition mean	0.104 cm
3.125 µg/mL, seed germination, repetition mean	1.89 cm
12.5 µg/mL, seed germination, single repetition	1.3 cm and 1.35 cm and 1.36 cm and 1.38 cm
6.25 µg/mL, seed germination, single repetition	1.59 cm and 1.61 cm and 1.62 cm and 1.63 cm
12.5 µg/mL, seed germination, repetition mean	1.33 cm
25 µg/mL, seed germination, repetition mean	0.98 cm
25 µg/mL, seed germination, single repetition	0.94 cm and 1.09 cm and 0.89 cm and 1.03 cm and 1 cm

Other studies, line by line
Structure (SMILES)	tested on	assay	test system	setting	scale	quantity	result
Cc1ccc(O)c(C)c1-c1cnc2[nH]c(-c3cnc(N4CCC5(CC4)CC(N4CCN(c6ccc(N[C@H]7CCC(=O)NC7=O)cc6F)CC4)CO5)nc3)cc2c1C#N (single isomer, unassigned)	ABL1 non-phosphorylated human	KINOMEscan		1000 nM	relative to: control	binding remaining	67%
Cc1nc(C)c(C=[N+]([O-])C(C)(C)C)nc1C		stereological counting	MPTP mouse model, substantia nigra	10 mg/kg		TH-positive neuron count	7260 and 7070 and 7530 and 6790
Cc1ncc(-c2cc3c(C(F)(F)F)c(-c4c(C)ccc(O)c4C)cnc3[nH]2)cn1	HCC1569	in-cell western, refers to: CDK1 phospho-Thr14		0.0508 nM		pCDK1 (Thr14) level	8.54 RLU and 9.69 RLU
Cc1ccc(O)c(C)c1-c1cnc2[nH]c(-c3cnc(N4CCC(CCN5CCN(c6ccc(NC7CCC(=O)NC7=O)cc6F)CC5)CC4)nc3)cc2c1C#N (stereo not drawn)			female CD-1 mouse, plasma	oral, 10 mg/kg		Cmax	249 ng/mL
Cc1ccc(O)c(C)c1-c1cnc2[nH]c(-c3cnc(N4CCC5(CC4)CC(N4CCN(c6ccc(N[C@H]7CCC(=O)N(C)C7=O)cc6F)CC4)CO5)nc3)cc2c1C#N (single isomer, unassigned)	PKMYT1 (Homo sapiens, UniProt Q99640)	target engagement, NanoBRET				EC50	8 nM

A few entries again (sample 1):
assay	test system	setting	paw withdrawal threshold
mechanical pain	mouse, STZ diabetic neuropathy	intravenous, 30 mg/kg, 3 h post-dose, first injection, day 8	0.1 g and 0.44 g and 0.51 g and 0.23 g and 0.32 g
	mouse, CFA inflammatory pain	intravenous, dose not given, 24 h post-dose, third injection, day 5	0.51 g and 0.44 g and 0.98 g
mechanical pain	mouse, STZ diabetic neuropathy	intravenous, 30 mg/kg, 1 h post-dose, first injection, day 8	0.65 g and 0.51 g and 0.98 g and 0.4 g
	mouse, CFA inflammatory pain	intravenous, dose not given, 3 h post-dose, first injection, day 1	0.98 g and 0.51 g and 0.65 g and 0.75 g
